Experimental data collected from several papers.
± gives the spread as reported.

Under “tube length disruption”, `O=C1[O][Pt]2([OH])([OH])([NH]C3CCCCC3[NH]2)[O]C1=O` (centres unmarked) is recorded as 16% (HUVEC; tube formation; IC10, 16 h).
`CCC(=O)CCC[C@H](C)C[C@H](NC(=O)[C@@H]1C[C@H](C)CN1C(=O)/C=C/[C@@H](C)CC)C(=O)N[C@H](C(=O)NC(C)(C)C(=O)N[C@@H](CC(C)C)C(=O)N[C@@H](CC(C)C)C(=O)NC(C)(C)C(=O)NC(C)(C)C(=O)NCCC(=O)N[C@@H](C)CN(C)C)[C@H](O)C(C)C` has a GI50 of 2.1 nM (SUM185PE; cell growth or viability, SRB; 48 h).
`C#CCCCN(CCNc1ccnc2cc(Cl)ccc12)C(=O)CCC(=O)O[C@@H]1O[C@@H]2O[C@@]3(C)CC[C@H]4[C@H](C)CCC([C@H]1C)[C@@]24OO3` (some centres unmarked) gave an inhibition of 43.5% (CCRF-CEM; cell growth or viability, resazurin; 10 µM, 48 h).
With `CC(C)CC(O)(CC(C)C)c1cn(C(=O)N2CCCC2)nn1` the protein level was 0.9 ± 0.2 (mouse T-cells; SILAC proteomics, measured: PAIP2; 1 nM, 6 h, unit not given; relative to: DMSO).
The inhibition of `CC1CCC2C(C)C(OC(=O)CCC(=O)N(CCCc3cn(-c4ccc(CN5CCOCC5)cc4)nn3)CCNc3ccnc4cc(Cl)ccc34)OC3OC4(C)CCC1C32OO4` (centres unmarked) is reported as 29.8% (MOLT-4; cell growth or viability, resazurin; 10 µM, 48 h).
With `CCCCCCCCCCCCCC(=O)NCC(=O)N[C@@H](CCCNC(=N)N)C(=O)N[C@@H](Cc1c[nH]c2ccccc12)C(=O)N[C@@H](CCCCN)C(=O)N[C@H](C(=O)N[C@@H](Cc1ccccc1)C(=O)N[C@@H](CCCCN)C(=O)N[C@@H](CCCCN)C(=O)N[C@H](C(=O)N[C@@H](CCC(=O)O)C(=O)N[C@@H](CCCCN)C(=O)N[C@H](C(=O)NCC(=O)N[C@@H](CCC(N)=O)C(=O)N[C@@H](CC(N)=O)C(=O)N[C@H](C(=O)N[C@@H](CCCNC(=N)N)C(=O)N[C@@H](CC(=O)O)C(=O)NCC(=O)N[C@H](C(=O)N[C@H](C(=O)N[C@@H](CCCCN)C(=O)N[C@@H](C)C(=O)NCC(=O)N1CCC[C@H]1C(=O)N[C@@H](C)C(=O)N[C@H](C(=O)N[C@@H](C)C(=O)N[C@H](C(=O)N[C@H](C(=O)NCC(=O)N[C@@H](CCC(N)=O)C(=O)N[C@@H](C)C(=O)N[C@@H](C)C(=O)N[C@H](C(=O)N[C@H](C(N)=O)[C@@H](C)CC)[C@@H](C)O)C(C)C)C(C)C)C(C)C)C(C)C)[C@@H](C)CC)[C@@H](C)CC)C(C)C)[C@@H](C)CC)[C@@H](C)CC` the LDH release was roughly 20% (K562/MDR; 3 µM, 16 h).
The selectivity index of `C[C@@H]1O[C@H]2O[C@@H]3C4(O)C(=O)c5cccc(O)c5C(=O)C4(O)O[C@]3(C)[C@]21O` (some centres unmarked) is reported as 2.32 (HeLa and HFF; MTT; relative to: CC50 HFF over EC50 HeLa).
`COC(=O)c1ccc(-n2cc(CCCN(CCNc3ccnc4cc(Cl)ccc34)C(=O)CCC(=O)OC3OC4OC5(C)CCC6C(C)CCC(C3C)C46OO5)nn2)cc1` (centres unmarked) has an inhibition of 33.5% (MOLT-4; cell growth or viability, resazurin; 10 µM, 48 h).
For `CN1C(=O)CN=C(c2ccccc2)c2cc(C#CCCCC(=O)NO)ccc21`, the apoptotic cells was roughly 80% (NB4; annexin V/PI flow cytometry; 2.5 µM, 48 h).
`O=C(CN1CCN(c2cc3c(cc2F)c(=O)c(C(=O)O)cn3C2CC2)CC1)Nc1ccc(Cl)cc1`: “cell cycle distribution” “no effect” (endometrial cancer cell lines; 10 µM, 24 h; relative to: untreated).
For `CNC(=O)c1cc(Oc2ccc(NC(=O)c3ccc(-c4ccc(OC(=O)CCC(=O)OC5OC6OC7(C)CCC8C(C)CCC(C5C)C68OO7)cc4)cn3)cc2)ccn1` (centres unmarked), the selectivity ratio was 14.5 (Huh-7 and LO2; cell viability, MTT; 72 h; relative to: IC50 LO2 over IC50 Huh-7).
Under viability, `CCCN(CCC)c1ncnc2c1cnn2-c1ccc(C)c(C)c1` is recorded as “increased” (primary rat pancreatic islets; flow cytometry, measured: total and insulin-positive beta cells; 30 µM, 48 h; relative to: equimolar EUK-134).
The inhibition of `CC12OOC(C)(OO1)C2CCC(=O)OCCNc1ccnc2cc(Cl)ccc12` (centres unmarked) is reported as 37.7% (MOLT-4; cell growth or viability, resazurin; 10 µM, 48 h).
`CC[C@H](C)[C@H](NC(C)=O)C(=O)N[C@@H](CC(N)=O)C(=O)N[C@@H](Cc1c[nH]c2ccccc12)C(=O)N[C@@H](Cc1c[nH]cn1)C(=O)NCC(=O)N[C@H](C(=O)N[C@@H](C)C(=O)N[C@@H](Cc1c[nH]cn1)C(=O)N[C@@H](CCSC)C(=O)N[C@@H](C)C(=O)N[C@@H](CCCCN)C(=O)N[C@@H](CCCCN)C(=O)N[C@@H](CC(C)C)C(=O)N[C@@H](CC(C)C)C(N)=O)[C@@H](C)CC` gave a Hill coefficient of 1.3 ± 0.1 (human erythrocytes; haemolysis; added: Ni(II) 300 µM).
For `O=C1C=CC(=O)c2c(O)ccc(O)c21`, the selectivity ratio was 4.14 (HuCC-A1; cytotoxicity, MTT; relative to: IC50 MRC5 over IC50 HuCC-A1).
`CC[C@H](C)[C@H](NC(C)=O)C(=O)N[C@@H](CC(N)=O)C(=O)N[C@@H](Cc1c[nH]c2ccccc12)C(=O)N[C@@H](CCC(=O)O)C(=O)NCC(=O)N[C@H](C(=O)N[C@@H](C)C(=O)N[C@@H](Cc1c[nH]cn1)C(=O)N[C@@H](CCSC)C(=O)N[C@@H](C)C(=O)N[C@@H](CCCCN)C(=O)N[C@@H](CCCCN)C(=O)N[C@@H](CC(C)C)C(=O)N[C@@H](CC(C)C)C(N)=O)[C@@H](C)CC` has a Hill coefficient of 2.2 ± 0.1 (human erythrocytes; haemolysis; added: Ni(II) 300 µM).
`CCCN1CCNC1=[S+][Ag-3]([O][N+](=O)[O-])([P+](c1ccccc1)(c1ccccc1)c1ccccc1)[P+](c1ccccc1)(c1ccccc1)c1ccccc1` gave a cell killing of no more than 75% (MG-63 osteosarcoma; MTT; 25 µM).
For `CNC(=O)c1cc(Oc2ccc(NC(=O)c3cc(-c4cccc(COC(=O)CCC(=O)OC5OC6OC7(C)CCC8C(C)CCC(C5C)C68OO7)c4)ccn3)cc2)ccn1` (centres unmarked), the selectivity ratio was 5.9 (Huh-7 and LO2; cell viability, MTT; 72 h; relative to: IC50 LO2 over IC50 Huh-7).
`O=C(CCl)c1ccc(F)cc1` gave a fold increase of roughly 4 fold (AP1-luc HEK293; AP1 reporter gene, activator, luciferase; added: FBS stimulation; relative to: control).
`CNC(=O)c1cc(Oc2ccc(NC(=O)c3cc(-c4cccc(OC(=O)CCC(=O)OC5OC6OC7(C)CCC8C(C)CCC(C5C)C68OO7)c4)ccn3)cc2)ccn1` (centres unmarked) has a selectivity ratio of 5.5 (Huh-7 and LO2; cell viability, MTT; 72 h; relative to: IC50 LO2 over IC50 Huh-7).
`COC(=O)[C@H](CC(C)C)NC(=O)[C@@H]1CCCN1C(=O)[C@@H](NC(=O)[C@H](CCC(=O)C=[N+]=[N-])NC(=O)OCc1ccccc1)C(C)C` — result for mitochondrial staining: “increased” (Q7 mouse striatal cells; MitoTracker staining; 50 µM, 12 and 24 h).
`O=C(O)CCC(NP(=O)(O)OCCC[C@@H](NC(=O)CCC(NC(=O)c1ccc([18F])cc1)C(=O)O)C(=O)O)C(=O)O` (some centres unmarked) gave an internalized fraction of 94.2% (CWR22Rv1; 2 h).
For `CC12CCC3(CCC(=O)NCCCNc4ccnc5cc(Cl)ccc45)C(C)(OOC3(C)O1)O2`, the inhibition was 22.7% (RPMI-8226; cell growth or viability, resazurin; 10 µM, 48 h).
With `CSCC[C@H](NC(=O)[C@H](CC(C)C)NC(=O)CNC(=O)[C@H](Cc1ccccc1)NC(=O)[C@H](Cc1ccccc1)NC(=O)[C@H](CCC(N)=O)NC(=O)[C@H](CCC(N)=O)NC(=O)[C@@H]1CCCN1C(=O)[C@H](CCCCN)NC(=O)[C@@H]1CCCN1C(=O)[C@@H](N)CCCNC(=N)N)C(N)=O` the degranulation rate was 0.08 ± 0.01 pF/s (rat mast cells; whole-cell patch-clamp capacitance; 50 µM, intracellular application).
With `CC/C=C\C/C=C\C/C=C\C/C=C\C/C=C\C/C=C\CCC(=O)Nc1ccn(C2OC(CO)C(O)C2(F)F)c(=O)n1` (centres unmarked) the CC50 was greater than 100000 nM (SNB-75; NCI60 screen).
`CC(C)C[C@@H](NC(=O)CCNc1ccc([N+](=O)[O-])c2nonc12)C(=O)N[C@H](CC(C)C)C(=O)N[C@H](CC(C)C)C(=O)N[C@H](CC(C)C)C(=O)N[C@H](Cc1ccc(OP(=O)(O)O)cc1)C(=O)O`: “SJSA-1 cell fraction” 0.98% (SJSA-1 RFP and HS5 co-culture; concentration not given, 4 h).
`CC12OOC(C)(OO1)C2CCC(=O)NCCCNc1ccnc2cc(Cl)ccc12` (centres unmarked) has an inhibition of 37.8% (CCRF-CEM; cell growth or viability, resazurin; 10 µM, 48 h).
Under protein level, `CCN(CC)CCOc1ccc(-c2nnn(Cc3ccc(OC)cc3)c2N)cc1` is recorded as “increased” (HEI-193; western blot, measured: SOX10, MBP, p21, p27; concentration not given, 7 days).
The viability of `CC(C)C[C@H](NC(=O)[C@H](CCCNC(=N)N)NC(=O)CNC(=O)[C@@H](N)Cc1ccccc1)C(=O)O` is reported as 121 ± 3.06% (HaCaT; CCK-8; 100 µg/mL, 72 h, 0.4 % serum).
Under ERK phosphorylation, `CC(C)[C@@H]1NC(=O)[C@H](CCCCN)NC(=O)[C@@H](Cc2c[nH]c3ccccc23)NC(=O)[C@H](Cc2ccc(O)cc2)NC(=O)[C@@H](NC(=O)[C@H](N)Cc2ccc3ccccc3c2)CSSC[C@@H](C(=O)N[C@@H](Cc2ccc3ccccc3c2)C(N)=O)NC1=O` is recorded as “inhibited” (NCI-H1299-BRS-3; antagonist, Western blot; concentration not given, added: BA1).
The γH2AX-positive cells of `CC(=O)N[C@@H](CCCNC(=N)N)C(=O)N[C@@H](CCCNC(=N)N)C(=O)N[C@@H](CCCNC(=N)N)C(=O)N[C@@H](CCCNC(=N)N)C(=O)N[C@@H](CCCNC(=N)N)C(=O)N[C@@H](CCCNC(=N)N)C(=O)N[C@@H](CCCNC(=N)N)C(=O)N[C@@H](CCCNC(=N)N)C(=O)N[C@@H](CCCNC(=N)N)C(=O)N[C@@H](CCCNC(=N)N)C(=O)NCC(=O)N[C@@H](COP(=O)(O)O)C(=O)N1CCC[C@H]1C(=O)N[C@H](C(=O)N[C@@H](Cc1ccccc1)C(=O)O)[C@@H](C)O` is reported as 85.5 ± 3.65% (HeLa; DNA damage, immunostaining; 10 µM, 30 min, added: ionizing radiation 20 Gy).
For `C=CC12COC(=O)C(=C)C1C(O)C1C(=C)C(=O)OC1C2` (centres unmarked), the wound closure was 35% (JIMT-1; scratch; 2 µM, 72 h).

Repeated from above:
For `CC12CCC3(CCC(=O)NCCCNc4ccnc5cc(Cl)ccc45)C(C)(OOC3(C)O1)O2`, the inhibition was 22.7% (RPMI-8226; cell growth or viability, resazurin; 10 µM, 48 h).
Under protein level, `CCN(CC)CCOc1ccc(-c2nnn(Cc3ccc(OC)cc3)c2N)cc1` is recorded as “increased” (HEI-193; western blot, measured: SOX10, MBP, p21, p27; concentration not given, 7 days).
For `C=CC12COC(=O)C(=C)C1C(O)C1C(=C)C(=O)OC1C2` (centres unmarked), the wound closure was 35% (JIMT-1; scratch; 2 µM, 72 h).
